{"data": "Published values gathered from unrelated publications", "target": "Serine/threonine-protein kinase ULK2 (ULK2, Homo sapiens, UniProt Q8IYT8)"}
{"Compound": "COc1c(Cl)cccc1Nc1c(-c2ccncc2C#C[C@@]2(C)CCCN2C(=O)/C=C/CN(C)C)[nH]c2c1C(=O)NCC2", "test": "binding, competition with immobilised ligand", "conditions": "3 µM", "quantity": "remaining binding", "value": "88%"}
{"Compound": "O=C=[N][Ru-4]123([n]4c5ccc(O)cc5c5c6c(c7cc(F)c[n+]1c7c54)C(=O)NC6=O)[S+]1CC[S+]2CC[S+]3CC1 (stereo not drawn)", "test": "enzyme activity", "conditions": "100 nM, human enzyme, with: 10 µM ATP", "scale": "reference: untreated", "quantity": "remaining activity", "value": "106%"}
{"Compound": "C=C1CCCCCCCCCC(CO)C1=O (stereo not drawn)", "test": "cell-free assay, competition with immobilised ligand", "conditions": "10 µM", "quantity": "remaining binding", "value": "58%"}
{"Compound": "C=CC(=O)N1CCCC(n2c(=O)c3ncccc3n(Cc3ccc(Oc4ccccc4)cc3)c2=O)C1 (stereo not drawn)", "test": "cell-free assay, competition with immobilised ligand", "conditions": "1 µM", "quantity": "remaining binding", "value": "68%"}
{"Compound": "COc1cc(Nc2nccc(-c3cnn4nc(OC)ccc34)n2)cc(C(F)(F)F)c1", "test": "binding, competition with immobilised ligand", "conditions": "1 µM", "quantity": "remaining binding", "value": "100%"}
{"Compound": "COc1c(OCCCN2CCOCC2)ccc2c1N=C(NC(=O)c1cnc(N)nc1)N1CCN=C21", "test": "kinase activity, inhibitor", "conditions": "1 µM", "scale": "reference: untreated control", "quantity": "remaining activity", "value": "111%"}
{"Compound": "CN1CCN(Cc2ccc(NC(=O)c3cccc(C#Cc4cnc(N)c5ncccc45)c3)cc2C(F)(F)F)CC1", "test": "cell-free assay, competition with immobilised ligand", "conditions": "0.5 µM", "quantity": "remaining binding", "value": "95%"}
{"Compound": "O=C(Cc1ccc(OCc2ccccc2)cc1)NC1(C(=O)O)CCN(C(=O)c2ccc(-c3cccc(Cl)c3)cc2)CC1", "test": "enzyme activity, inhibitor", "conditions": "10 µM", "quantity": "activity vs control", "value": "102%"}
{"Compound": "CNC(=O)C1CCN(c2cc(C)c(F)cc2NC(=O)c2ccc(-c3cc(O)ccc3C)c(C)c2)CC1", "test": "binding, competition with immobilised ligand", "conditions": "1 µM", "quantity": "remaining binding", "value": "96%"}
{"Compound": "NC(=O)[C@@H](O)C[C@H]1CCc2sc3ncnc(O[C@H]4CC[C@H](N5CCOCC5)CC4)c3c21", "test": "enzyme activity, inhibitor", "conditions": "10 µM", "quantity": "inhibition", "value": "1%"}
{"Compound": "COc1ccc(NC(=O)Nc2ccc3c(c2)C(=O)N(C(C)CO)CC(C)C(CN(C)Cc2ccc4c(c2)OCO4)O3)cc1 (stereo not drawn)", "test": "binding, competition with immobilised ligand", "conditions": "10 µM", "quantity": "remaining binding", "value": "100%"}
{"Compound": "CC(C)=CC1OC(C)(C)C2C=C3C(=O)C(Cl)=CC(O)C3C3C(O)C4OC4C(=O)C132 (stereo not drawn)", "test": "cell-free assay, competition with immobilised ligand", "conditions": "10 µM", "quantity": "remaining binding", "value": "76%"}
{"Compound": "Cc1nc2c(F)cc(-c3nc(Nc4ccc(CNC(=O)CCCCCCC(=O)NO)cc4)ncc3F)cc2n1C(C)C", "test": "enzyme activity, inhibitor", "conditions": "1 µM", "quantity": "inhibition", "value": "20%"}
{"Compound": "CNC(=O)C[C@H](Cc1ccc(C#N)cc1)NC(=O)c1cc(-c2ccc(CN[C@H](C)c3ccc(C)cc3)o2)ccc1Cl", "test": "enzyme activity, inhibitor", "conditions": "1 µM", "quantity": "activity vs control", "value": "105%"}
{"Compound": "Cc1ccc(-c2c(/C=C(\\C#N)C(=O)NC(C)C)n(CCCO)c3ncnc(N)c23)cc1", "test": "cell-free assay, competition with immobilised ligand", "conditions": "1 µM", "quantity": "remaining binding", "value": "98%"}
{"Compound": "CC(=O)N1c2ccc(-c3ccc(CNC(=O)c4cn5cc(-c6cnc(N)nc6)nc(N6CCOCC6)c5n4)cc3)cc2CC[C@@H]1C", "test": "KINOMEscan", "conditions": "10 µM", "quantity": "remaining binding", "value": "94%"}
{"Compound": "CN1CCN(Cc2ccc(-c3ccc(CO[C@H]4CCC[C@@H]4NC(=O)c4cc(-c5cnn(C)c5)cnc4N)cc3)cc2)CC1", "test": "enzyme activity, inhibitor", "conditions": "0.1 µM", "quantity": "inhibition", "value": "1%"}
{"Compound": "Cc1ccc(C(=O)Nc2ccc(CN3CCN(C)CC3)c(C(F)(F)F)c2)cc1C#Cc1cnc2cccnn12", "test": "target engagement, NanoBRET", "test system": "human cells", "quantity": "upper asymptote", "value": 650}
